Measured values of several laboratories.
Every numbered part comes from another study and shows a few of its results, in no order.

Series 1
Target: RING finger protein unkempt homolog, zinc fingers 1-6, GST-SBP tag (UNK, Homo sapiens, UniProt Q9C0B0, residues 30-357)
UniProt Q9C0B0, sequence (30-357, looked up): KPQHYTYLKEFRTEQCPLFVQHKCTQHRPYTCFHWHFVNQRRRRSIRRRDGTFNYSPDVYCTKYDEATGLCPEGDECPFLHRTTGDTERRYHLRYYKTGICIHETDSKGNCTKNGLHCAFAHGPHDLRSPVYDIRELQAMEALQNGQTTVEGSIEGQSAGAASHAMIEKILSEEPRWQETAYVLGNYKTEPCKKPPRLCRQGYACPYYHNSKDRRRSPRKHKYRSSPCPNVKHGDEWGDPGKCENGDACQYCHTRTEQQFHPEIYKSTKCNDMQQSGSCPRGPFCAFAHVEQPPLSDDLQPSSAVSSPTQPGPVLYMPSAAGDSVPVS
Technique: RNA Bind-n-Seq
Form: RNA
Matrix: in vitro
Tested at: not given
Setting: RNA with constant flanks, ends assumed
Reference: input RNA pool
Direction: higher = stronger binding
Quantity: bound/input enrichment
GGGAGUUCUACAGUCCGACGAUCAAAGCCCUUAAAGCCAAGAAGGAAGAUGGGAAUAAAGCCUUUAAGGAAGGAAAUUACAAGCCCGCAUAUGAACUGUACACAGAAGCCUUGGGGAUAGAUCCCAACAACAUAAAAACAAAUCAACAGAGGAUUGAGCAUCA: 0.223 ratio
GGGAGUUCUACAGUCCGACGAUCCAGUCUUCUAUGUCUAUUGAGUUCGGCCAGGAAUCCCCUGAGCAUUCUCUUGCUAUGGACUUCCGUCGGCAGUCUCCAGAUCACCCUACUCUGGGUGCCAGUGUGCUUCAUAUCACUGAACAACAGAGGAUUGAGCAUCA: 0.242 ratio
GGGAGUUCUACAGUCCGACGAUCGAGGAGAGGAAGGCAUCUUGUACGUCGUUACAUUUAUCAUAUUGGAAGUCCCUUAAGCUCCCCGGAUUUUUAGAUGUUGAAAAUACUCCCUGCGCCCGGCAUUCAAUAUUGUAUGGUUCACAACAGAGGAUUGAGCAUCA: 0.303 ratio
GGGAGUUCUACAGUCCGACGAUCGCCUUAUAUAGCAACAUACUUGGUGAGGAAAACACCUACCUGUGGCGCACAUCACUGUAUUCCGCUUCUUCUGCCAGUGCUGAAUUCUUCGCUGACAUUGCCCUGGCUCCUAUGGAAGCUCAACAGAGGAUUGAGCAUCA: 0.236 ratio
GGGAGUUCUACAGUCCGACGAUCGUUAAUCGUGAUUCAGAAAAUCUAGCUUCACCAUCUGAAUAUCCAGAAAAUGGAGAGAGAUUCCGUUUCCUAAGCAAACCUGUUGAUGAGAAUCACCAGCAGGAUGGAGAUGAAGAUUCCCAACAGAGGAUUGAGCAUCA: 0.13 ratio
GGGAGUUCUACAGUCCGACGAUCCAAACAUGGCCUCAUUGGAAAGGACCAGCCAGGUCUGGUGUGGAGGUCCUAUUUAAUGAAUCCGAAAUUCCCGUGGAAGAAUACUCCUUUGGUAGAUCAAAGAUAUUCAUCCGAAACCCACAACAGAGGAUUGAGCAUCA: 0.12 ratio
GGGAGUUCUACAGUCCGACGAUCUGUGUGAUGCUUGUCUCUAAUUUGCCUAAUAAAGGAUAUUCUGUAGAAGAAGUUUAUGACUCCGCAAAACCAUUUGGUGGUUUAAAGGAUAUCUUGAUUUUAUCAUCUCAUAAAAAGGCACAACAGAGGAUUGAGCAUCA: 0.377 ratio
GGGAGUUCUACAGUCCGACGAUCGAUCAGAGCUGAUCAACUCCUUUAGGAUUGCCUGUGGAGGAUACCUUCAGUCGAAGUUUUUUCCGCCCUCACUGAGCUACUUCCAAGUUUGGAAGUACUUAGUGACCUUGGUGAGUUUCUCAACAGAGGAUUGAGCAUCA: 0.567 ratio

Series 2
Target: RNA binding protein fox-1 homolog 2, RRM domain, GST-SBP tag (RBFOX2, Homo sapiens, UniProt O43251-10, residues 100-194)
Technique: RNA Bind-n-Seq
Form: RNA
Matrix: in vitro
Tested at: 365 nM
Setting: natural RNA segment, single round, ends assumed
Reference: no-protein control
Direction: higher = stronger binding
Quantity: RBNS enrichment (R)
Construct (chain): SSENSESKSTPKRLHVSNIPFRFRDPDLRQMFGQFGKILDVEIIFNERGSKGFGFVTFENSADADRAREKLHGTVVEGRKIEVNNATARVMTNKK
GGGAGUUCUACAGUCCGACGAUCACUUUGCCAUAUUUUCACCAUUUGAUUAUGUAGCAAAAUACAUGACAUUUAUUUUUCAUUUAGUUUGAUUAUUCAGUGUCACUGGCGACACGUAGCAGCUUAGACUAAGGUGGAAUUCUCGGGUGCCAA: 0.299
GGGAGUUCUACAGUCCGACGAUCAUCGCCACAGUCUCUGGGGCUCCAGGGCUGCGCUGUAACUGAGCUUCAUCCAGAAUGAGCAAAACACUGUCCAGUCUUUGUUACGAUUUUGUAAUAAAUGUGUACAUUUUUGGAAUUCUCGGGUGCCAA: 0.215
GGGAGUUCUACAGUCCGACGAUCCUGUCUUUUUUACUUGUCUCAUUUUCUUUCACAGCACUGAGGUCUCACCAAAUUUUCUAAUUUUUAUUGUUAAUGACCGUUUUACUAUUAAAUAUAUGCAUGAUCCAAGCUGGAAUUCUCGGGUGCCAA: 1.74
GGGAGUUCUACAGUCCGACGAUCGCCAGGGCUCUGAAUUUAGCCUAACACUCAUCUUGGCUGUGGGCUUGGGAAGAAAUGGCCAUUAUUUACAGAUUGUAUUUGGUACAUAUUGUGUGAUACUUGAAAAGAUAUGGAAUUCUCGGGUGCCAA: 0.437
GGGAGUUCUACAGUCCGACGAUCCUGCCGCCUUUGCUUUUGGUUGGGGGCAGAUUGGGUUGGAAUGCUUUCCAUCUCCAGGAGACUUUCAUGCAGCCUAAAGUACAGCCUGGACCACCCCUGGUGUGUAGCUAUGGAAUUCUCGGGUGCCAA: 0.426
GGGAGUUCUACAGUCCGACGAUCUUUUAAAGGGGGGAAAUAACAUCCAAGUCUGAUUAGAACCGCCCAUCAGUUGUUCUUGGAAGUUUUUAGAAGACCUCACGGACUUUGCAGUUUAUUUUUCUUGGCCAACAUGGAAUUCUCGGGUGCCAA: 1.05
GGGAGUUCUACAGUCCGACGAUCAUCCCAGAGGGGCCUCAUCAGCAAAGACAGAAACUGAUGUUCCAUGCAUGUCCCUGCUUCCAAAGCCUGACCUUCCAAAGCUUGCUUCCUUCCUCCUGGCUGCACAGACAUGGAAUUCUCGGGUGCCAA: 2.67
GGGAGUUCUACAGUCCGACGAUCUGACAUAUGAAUCUAUUUAUUAUGUAGUACUGUGGCAGAGAAGGAAUCCAGGGGCCUGCACUGAUCGGGUAGCAGCUACUUUGCCUGUCCUUGGCCGUCUCCCUCAGCUCUGGAAUUCUCGGGUGCCAA: 3.15
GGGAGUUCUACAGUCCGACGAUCCAGCCUCCCUGAAACACAGCAGCCCCCCUUACUAAUCACAGGCACAAAUGGAGAGGAAGGGGUCCCUGUGGAGGACCCAACCACAGAAUCUGAGGUGUUCAGAAUCUGACUGGAAUUCUCGGGUGCCAA: 0.51

Series 3
Target: Phosphate system positive regulatory protein PHO4, full length, GST-tagged (PHO4, Saccharomyces cerevisiae, UniProt P07270, residues 1-312)
Technique: competition protein-binding microarray
Form: double-stranded DNA, one strand shown
Matrix: in vitro
Tested at: 2 µM
Setting: whole 60-bp probe, lowest competitor level
Added: Cbf1 competitor, 0.05 µM
Direction: higher = stronger binding
Quantity: fluorescence intensity
Construct (chain): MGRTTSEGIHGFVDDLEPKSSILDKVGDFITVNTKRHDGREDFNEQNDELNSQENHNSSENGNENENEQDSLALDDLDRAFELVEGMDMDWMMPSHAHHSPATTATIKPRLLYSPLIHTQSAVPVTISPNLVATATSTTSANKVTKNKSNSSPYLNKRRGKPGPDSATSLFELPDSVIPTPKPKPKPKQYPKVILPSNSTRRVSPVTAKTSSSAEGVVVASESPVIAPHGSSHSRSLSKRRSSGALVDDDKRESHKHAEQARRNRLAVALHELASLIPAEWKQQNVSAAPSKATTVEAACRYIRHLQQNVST
AAATTAATTATTCAACACGTGATGGAGTTACTCTAAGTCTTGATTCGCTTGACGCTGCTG: 17500 a.u.
ATCAAATGCTGATACCACATGTATGCTATAGTGTCGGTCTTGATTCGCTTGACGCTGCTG: 10600 a.u.
AGGACCTGCGTCCTTCACGCTGAAGCGGCAGCAAGCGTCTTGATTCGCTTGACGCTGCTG: 3220 a.u.
GTCCGCCATGTCCAACACGTTGCTGGCCGCAAAACGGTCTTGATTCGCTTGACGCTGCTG: 12900 a.u.
TGGACCATCCAAGTACTCGTGAAGATCCGAGCCACAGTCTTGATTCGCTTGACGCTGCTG: 3740 a.u.
TTGCTTGCAAACCGTCACATGCTTATAATCAACTTTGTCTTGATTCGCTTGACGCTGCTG: 9390 a.u.
AGCCGCAATACGTATCACATGGCTCAACCAATCTCGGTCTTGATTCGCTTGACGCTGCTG: 7700 a.u.
AAATTACTAAGTTGCACGGTGGGTGACGCCGTATGAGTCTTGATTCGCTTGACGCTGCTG: 7060 a.u.
GAGACTTTCAGCCATCACGTGTAATAAAATATCACCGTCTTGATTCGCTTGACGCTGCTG: 12700 a.u.
CTTTCCCGATCTTGAAATGTGGGTGTAGCACATTTGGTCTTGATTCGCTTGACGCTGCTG: 6550 a.u.
TGCAATAAGAAAACACACGTTAAATTACACTCAGGGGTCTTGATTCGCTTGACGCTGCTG: 6360 a.u.
ACTAAAAGGCGCTGGCACGATTTTCTTTGATGCTAAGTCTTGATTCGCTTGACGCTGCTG: 7600 a.u.
CTAACGAAGGTTTGGGGTGTGGGTGACAAGCCAAGTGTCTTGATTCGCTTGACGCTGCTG: 6090 a.u.
CTTCTGTAAATTTGGTATGTGGGTGGACGCGCCCCGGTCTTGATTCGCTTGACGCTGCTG: 5510 a.u.
TTCAAGGATCGAAAGCACGTCGCATAATACGGTAATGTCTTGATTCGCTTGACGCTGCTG: 7710 a.u.
GAATTTGACCAAAACCACGTGGTTTGGCTGCAAGTTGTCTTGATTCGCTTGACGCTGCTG: 17200 a.u.
TGAAAAACTGCTTGATTCGTGCTTTTAACTCAGAGGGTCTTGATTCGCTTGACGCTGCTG: 5840 a.u.

Series 4
Target: Ras GTPase-activating protein-binding protein 1, full length (G3BP1, Homo sapiens, UniProt Q13283)
UniProt Q13283, sequence (whole entry, looked up): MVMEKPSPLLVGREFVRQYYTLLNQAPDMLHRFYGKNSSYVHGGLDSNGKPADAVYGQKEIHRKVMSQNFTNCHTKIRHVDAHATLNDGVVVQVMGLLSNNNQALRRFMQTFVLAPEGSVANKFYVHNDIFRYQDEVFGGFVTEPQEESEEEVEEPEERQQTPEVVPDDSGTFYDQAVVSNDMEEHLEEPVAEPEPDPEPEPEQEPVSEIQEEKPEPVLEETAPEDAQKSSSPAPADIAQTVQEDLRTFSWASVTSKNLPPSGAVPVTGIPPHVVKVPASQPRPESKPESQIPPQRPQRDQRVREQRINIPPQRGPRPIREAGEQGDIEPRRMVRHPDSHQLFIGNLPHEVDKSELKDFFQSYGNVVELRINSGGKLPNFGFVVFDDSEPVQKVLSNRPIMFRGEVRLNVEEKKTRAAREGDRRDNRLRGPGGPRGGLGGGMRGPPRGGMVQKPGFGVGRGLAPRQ
Technique: RNA Bind-n-Seq
Form: RNA
Matrix: in vitro
Tested at: 200 nM
Setting: whole 134-nt RNA, ends assumed
Added: 150 mM LiCl
Reference: input library
Direction: higher = stronger binding
Quantity: log2 enrichment
All molecules: 7-deaza-guanosine replaces G
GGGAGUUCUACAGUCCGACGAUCAAGUCCUGUGCUACACAUCGUAUGUACCGAAUCGGAAAAAAAGGAGGAAAAAAAGGAAAGUAUUAUGUUACGCCGUUCGGAUCUGCACUUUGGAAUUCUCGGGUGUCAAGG: -0.269
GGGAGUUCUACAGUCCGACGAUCAGUCCUGUGCUACACAUCGUAUGUACCGAAUCGGGGUUUGGGGAGGGGAAAAAGGGGAAAGUAUUAUGUUACGCCGUUCGGAUCUGCACUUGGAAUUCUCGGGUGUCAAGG: 0.449
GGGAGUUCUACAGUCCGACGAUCACCAUGCAGGUCGGCAUCUUUGGGAAGUGGGGCAAGGGGGGGAUAGGGAGGGGGGUAACACUUUGGGAACAGGUGGUCCCAGGUCGUUUCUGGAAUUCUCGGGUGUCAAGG: 0.224
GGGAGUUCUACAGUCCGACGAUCUAACUUUAGAGGAGGAUCUGAUGGAUAUGGCAGUGGACGUAGAUUUGGGGAUGGCUAUAAUGGGUAUGGAGGAGGACCUGGAGGUGGCAAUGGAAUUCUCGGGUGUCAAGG: 0.0501
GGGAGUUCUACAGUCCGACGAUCUGGGAGGUGGAUUUUGUUUAUUUUUUUAGCUCAUUUCCAGGGGUGGGAAUUUUUUUUUAAUAUGUGUCAUGAAUAAAGUUGUUUUUGAAGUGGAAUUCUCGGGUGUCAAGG: -0.367
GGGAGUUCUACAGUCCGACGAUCUGGGAGGUGGAUUUUGUUUAUUUUUUUAGCUCAUUACCAGGGGUGGGAAUUUUUUUUUAAUAUGUGUCAUGAAUAAAGUUGUUUUUGAAAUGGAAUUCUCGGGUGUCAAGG: 0.315
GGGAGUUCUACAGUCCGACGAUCCACAGACAACACGCACCCACACAGACACAGAGGGAAGGGGUUGGGAUGGGGACAGGGUUCACAGCAGGGCGGGGUAGGACCCCAGCCCCUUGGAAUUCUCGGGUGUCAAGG: 0.0129
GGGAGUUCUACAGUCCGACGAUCUAACUUUAGAGGAGGAUCUGAUGGAUAUGGCAGUGGACGUGGAUUUGGGGAUGGCUAUAAUGGGUAUGGAGGAGGACCUGGAGAUGGCAAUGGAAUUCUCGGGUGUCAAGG: -0.203

Excerpt of the above (series 1):
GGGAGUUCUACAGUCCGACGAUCCAAACAUGGCCUCAUUGGAAAGGACCAGCCAGGUCUGGUGUGGAGGUCCUAUUUAAUGAAUCCGAAAUUCCCGUGGAAGAAUACUCCUUUGGUAGAUCAAAGAUAUUCAUCCGAAACCCACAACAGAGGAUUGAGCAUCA: 0.12 ratio
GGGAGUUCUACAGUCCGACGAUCUGUGUGAUGCUUGUCUCUAAUUUGCCUAAUAAAGGAUAUUCUGUAGAAGAAGUUUAUGACUCCGCAAAACCAUUUGGUGGUUUAAAGGAUAUCUUGAUUUUAUCAUCUCAUAAAAAGGCACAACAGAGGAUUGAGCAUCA: 0.377 ratio
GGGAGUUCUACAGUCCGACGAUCGAUCAGAGCUGAUCAACUCCUUUAGGAUUGCCUGUGGAGGAUACCUUCAGUCGAAGUUUUUUCCGCCCUCACUGAGCUACUUCCAAGUUUGGAAGUACUUAGUGACCUUGGUGAGUUUCUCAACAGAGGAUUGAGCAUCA: 0.567 ratio
